Assay results gathered from unrelated publications.
Numbered parts are unrelated; each lists some results of a single study.

Study 1
Target: RING finger protein unkempt homolog, zinc fingers 1-6, GST-SBP tag (UNK, Homo sapiens, UniProt Q9C0B0, residues 30-357)
Technique: RNA Bind-n-Seq
Molecule type: RNA
Medium: in vitro
Tested at: not given
Notes: RNA with constant flanks, human and mouse sites, ends assumed
Baseline: input RNA pool
Direction: higher = stronger binding
Target sequence (chain): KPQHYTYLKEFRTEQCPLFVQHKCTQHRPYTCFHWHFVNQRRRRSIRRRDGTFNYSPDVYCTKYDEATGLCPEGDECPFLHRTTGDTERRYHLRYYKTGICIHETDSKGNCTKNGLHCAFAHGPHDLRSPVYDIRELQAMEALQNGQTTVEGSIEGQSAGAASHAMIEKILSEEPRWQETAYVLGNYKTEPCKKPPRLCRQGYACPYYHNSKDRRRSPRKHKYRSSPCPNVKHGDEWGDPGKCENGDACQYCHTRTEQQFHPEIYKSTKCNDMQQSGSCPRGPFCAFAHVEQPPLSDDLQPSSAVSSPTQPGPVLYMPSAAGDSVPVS
Strand | bound/input enrichment
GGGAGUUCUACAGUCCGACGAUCUUUGUGACAUCCCCAGCAGCAGACAACAUAGAAAUGCUUCCUCAUUAUGAGCCAAUUCCAUUCAGUUCUUCUAUGAAUGAAUCUGCUCCCACUGGUAUUACUGAUCAUAUUGUCCAAGGACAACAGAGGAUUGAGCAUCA | 0.348 ratio
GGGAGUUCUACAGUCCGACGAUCCUUUGUUUCUUGGGGCAUUUUUCCUUUUUUUUUUUUUUUUGUUUUUUUUUUACCCCUCCUUAGCUUUAUGCGCUCAGAAACCAAAUUAAACCCCCCCCCCAUGUAACAGGGGGGCAGUGACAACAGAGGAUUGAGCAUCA | 69.6 ratio
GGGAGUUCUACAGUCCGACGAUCCUUGUGGAGAAGGUGCUUCCUGGGCACUUCAAUACCUUUGGUGCCGAAAGGCUGUUUCGCUUAGCUUCUAACUAUAUUUCAAAAGCUGGGAUAUGCCACAAAGUGUCUACUUUUGCCAUGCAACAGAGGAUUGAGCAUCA | 0.251 ratio
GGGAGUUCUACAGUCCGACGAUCCCCAGCACUUUGAUAAAGACUGUGGAUUGGUUGCUGGUGUUUUCCUUGUUCUUUUUAAUUAGUUUCAUUAUGUAUGCUACCAUCCGCACUGAGAGUAUUCGGUGGCUGAUUCCAGGACAACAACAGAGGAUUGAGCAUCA | 5.17 ratio
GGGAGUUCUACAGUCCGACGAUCUACAGCCUGGGCUCUAUGAAACUGUUUUAAACAAACAAAACAAAGAUGCCACCUCUAACUUAGUUGGCAGGGUUAGAGACUCAAUACAGUGCCAAACUUUAUAAAAAUAAACUGUGCUCUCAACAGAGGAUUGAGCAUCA | 0.263 ratio
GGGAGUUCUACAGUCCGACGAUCAGAAGGAAGCGAGCCCGGCAGAUCAAUGUUUCCACAGAUGACUCAGAGGUCAAAGCUUGCCUUAGAGCCUUGGGGGAACCCAUCACACUUUUUGGAGAGGGUCCUGCUGAAAGAAGAGAACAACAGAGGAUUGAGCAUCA | 0.168 ratio
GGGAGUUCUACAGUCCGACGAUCUGUUGAGCCUCACAGCCCUUCCCCUUCGAGCAAAUUCAGCACAAAAGGCCUCUGUAAGAAAAAACUGAGUGGGGAGGGAGACACAGACCCUGGAGCCUUAUCCAAUGAUGGCUCUGAUGACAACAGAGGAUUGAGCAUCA | 0.0939 ratio
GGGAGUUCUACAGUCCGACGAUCAUCAUACCAUCAAAGGAUAAGAAUAUUUUGCCAAAGGUUUUCCAUUAUUAUGGCCCUGCUUUAGAAUUUGUGCAGAUGAUAAAAUUAUCAGAUCUACCCUCCUGCUAUAUGUCGGAUAUUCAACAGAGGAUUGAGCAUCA | 0.991 ratio
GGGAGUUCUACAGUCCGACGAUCCAAGACCCAACCAUUUCUUCCACCUGCUUGAUUGUGCCAGUGUUUGCUCAGGCCUCUUUCUUAGUGUUGCUUUCAAAUCCUUCUCUUUCCUGGGUUGGGAAGGCCAGGCAGGGACAGAGCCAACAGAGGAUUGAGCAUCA | 1.07 ratio

Study 2
Target: Histone acetyltransferase KAT6A, both winged helices, GST fusion (KAT6A, Homo sapiens, UniProt Q92794, residues 1-181)
Technique: protein binding microarray
Molecule type: double-stranded DNA, one strand shown
Medium: in vitro
Tested at: not given
Notes: 8-mer, flanks averaged, mean of 2 arrays, mostly near background
Baseline: not given
Direction: higher = stronger binding
Construct (chain): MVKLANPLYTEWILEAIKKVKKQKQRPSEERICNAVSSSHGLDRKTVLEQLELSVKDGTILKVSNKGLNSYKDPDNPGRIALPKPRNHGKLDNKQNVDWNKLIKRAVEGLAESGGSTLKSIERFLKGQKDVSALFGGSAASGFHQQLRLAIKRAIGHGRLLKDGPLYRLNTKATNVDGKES
Strand | E-score
ACGTCACT | -0.0601
GTTAGATA | -0.0766
CCACAGAA | -0.157
AGCCAGAA | -0.122
TAACTATA | -0.153
GGGTACAA | -0.105
ACCGGGCA | 0.202

Study 3
Target: RNA binding protein fox-1 homolog 2, RRM domain, GST-SBP tag (RBFOX2, Homo sapiens, UniProt O43251-10, residues 100-194)
Technique: RNA Bind-n-Seq
Molecule type: RNA
Medium: in vitro
Tested at: 365 nM
Notes: natural RNA segment, single round, ends assumed
Baseline: no-protein control
Direction: higher = stronger binding
Target sequence (chain): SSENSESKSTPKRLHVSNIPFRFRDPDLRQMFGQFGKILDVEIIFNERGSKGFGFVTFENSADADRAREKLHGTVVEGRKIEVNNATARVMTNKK
Strand | RBNS enrichment (R)
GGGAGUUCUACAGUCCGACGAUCGCAGGGCAUAGGGCACGCACUGGCUUAACAGUUUAGUAUAUAAGGCUCAAAUAGUCUAUACCUGAACUGCUAUAAGCAAGGUCGAUAGGGAAGUGGAUAGAUUGCUUCAGUGGAAUUCUCGGGUGCCAA | 0.578
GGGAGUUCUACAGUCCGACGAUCGCAGGGUGUUAGCAAAGUUUUCCCAGUUAGUAGUGCCAGUUCUAGGCUGAAUGGGAGAGUCCUCCACAACUCCCUGUGUGCCUCAUGGAAAAUAAAGUUUUUUGCACCAUUGGAAUUCUCGGGUGCCAA | 0.879
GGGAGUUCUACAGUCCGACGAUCGGUUCAGGAAGCACGGAGAUUCUCUCCAACAAAGGUCCAGUUAGGAAACGACGCUGAGAGGAUGACGACAACGUGCAACAGCAGAAAGAUGCUUGCAAGCAGAGUCAGGGUGGAAUUCUCGGGUGCCAA | 0.539
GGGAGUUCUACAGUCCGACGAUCGUGUGCACUCGUGGCUGCACAGAUGAAGCCCAUGCUGAGUCUGUGGGAACACCCACACUCAGUGCACCCUGUGGGUGACCCUCCCUACACAGUGCAGAGCAGAGCCCAGGUGGAAUUCUCGGGUGCCAA | 0.283
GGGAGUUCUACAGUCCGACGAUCCGUCUGUCGAAAGCUGAAGUGCAGAGGGCAGGGAAGCAAACACACCAGAGCUCUUUCUGGUCAGAUUCCCCAGGUGUUUGUCCCCAGCCAAGCCUGGUCCGUAUUGUGAAUGGAAUUCUCGGGUGCCAA | 0.356
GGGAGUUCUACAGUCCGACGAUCGUGCAGAUCUAUACUCAUUCCUUCAAAUACAUUACUCUGUUAAUCUCAAAGUGUGGCCAACUCCCAUUUACUUAGAGGCUGAUUAUCUAGUUUUGUAGUUCCUCAGGCCUUGGAAUUCUCGGGUGCCAA | 0.224
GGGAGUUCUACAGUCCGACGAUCCUCCUCUUAACUCCUGCUGCUGUCCAUGGGGUUUCCAGAGCCUUCACCUACAGCUCAGUGGGGUUUCCAUUCACGGACUUGCUGUUCCUGUGGGCCAGUGUCGUGUGGCCUGGAAUUCUCGGGUGCCAA | 0.358
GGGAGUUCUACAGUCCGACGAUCAUUGGACCCAGGGGGAACACCCUGAAGAACAUUGAGAAGGAAUGCAACGCCAAGAUCAUGAUUCGGGGGAAAGGAUCAGUGAAAGAAGGGAAAGUUGGGCGUAAAGAUGGUGGAAUUCUCGGGUGCCAA | 2.89
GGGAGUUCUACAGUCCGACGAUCUUGGUUUGGCCUCCAUCCUCAUCUCUCUUGGGCCAAGCCAGCUGCCUAGGUCCCCCAAGCAUGGGGGACCCCUUCCCACAUAUAAGUUGAGAAGGUGCCUGCCAUAGCCAUGGAAUUCUCGGGUGCCAA | 0.48

Mixed results
Molecule | target | test | test system | conditions | how to read | quantity | result
PhoQ, residues 284 288 289 292 302 303 SSCCRF | PhoP, residues 12 14 15 18 19 LHHVQ (Escherichia coli, UniProt P23836) | Sort-seq, item: YFP reporter | E. coli | PhoQ-PhoP variant library, added: 10 µM Mg2+ | baseline: high Mg2+ state, higher = stronger signaling | fold induction | 0.829
